Experimental data of several laboratories.
Numbered parts are unrelated; each lists some results of a single study. “And” joins repeats or separate records; there may be more than shown.
Chain of UniProt P06239 (whole entry, looked up): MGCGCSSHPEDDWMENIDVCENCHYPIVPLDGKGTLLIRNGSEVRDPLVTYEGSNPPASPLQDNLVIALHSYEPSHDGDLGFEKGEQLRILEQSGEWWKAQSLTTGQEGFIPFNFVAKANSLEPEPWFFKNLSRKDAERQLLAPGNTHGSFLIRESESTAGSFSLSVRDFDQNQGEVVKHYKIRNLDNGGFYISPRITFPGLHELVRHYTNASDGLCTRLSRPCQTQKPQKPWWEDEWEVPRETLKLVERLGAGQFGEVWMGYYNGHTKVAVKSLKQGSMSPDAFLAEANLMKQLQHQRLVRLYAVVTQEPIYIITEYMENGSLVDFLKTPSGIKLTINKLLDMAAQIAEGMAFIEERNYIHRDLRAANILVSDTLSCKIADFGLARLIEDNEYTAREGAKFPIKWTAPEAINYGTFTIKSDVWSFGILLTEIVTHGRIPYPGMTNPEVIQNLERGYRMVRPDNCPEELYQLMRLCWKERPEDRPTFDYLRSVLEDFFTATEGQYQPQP
Chain of UniProt Q8TD19 (whole entry, looked up): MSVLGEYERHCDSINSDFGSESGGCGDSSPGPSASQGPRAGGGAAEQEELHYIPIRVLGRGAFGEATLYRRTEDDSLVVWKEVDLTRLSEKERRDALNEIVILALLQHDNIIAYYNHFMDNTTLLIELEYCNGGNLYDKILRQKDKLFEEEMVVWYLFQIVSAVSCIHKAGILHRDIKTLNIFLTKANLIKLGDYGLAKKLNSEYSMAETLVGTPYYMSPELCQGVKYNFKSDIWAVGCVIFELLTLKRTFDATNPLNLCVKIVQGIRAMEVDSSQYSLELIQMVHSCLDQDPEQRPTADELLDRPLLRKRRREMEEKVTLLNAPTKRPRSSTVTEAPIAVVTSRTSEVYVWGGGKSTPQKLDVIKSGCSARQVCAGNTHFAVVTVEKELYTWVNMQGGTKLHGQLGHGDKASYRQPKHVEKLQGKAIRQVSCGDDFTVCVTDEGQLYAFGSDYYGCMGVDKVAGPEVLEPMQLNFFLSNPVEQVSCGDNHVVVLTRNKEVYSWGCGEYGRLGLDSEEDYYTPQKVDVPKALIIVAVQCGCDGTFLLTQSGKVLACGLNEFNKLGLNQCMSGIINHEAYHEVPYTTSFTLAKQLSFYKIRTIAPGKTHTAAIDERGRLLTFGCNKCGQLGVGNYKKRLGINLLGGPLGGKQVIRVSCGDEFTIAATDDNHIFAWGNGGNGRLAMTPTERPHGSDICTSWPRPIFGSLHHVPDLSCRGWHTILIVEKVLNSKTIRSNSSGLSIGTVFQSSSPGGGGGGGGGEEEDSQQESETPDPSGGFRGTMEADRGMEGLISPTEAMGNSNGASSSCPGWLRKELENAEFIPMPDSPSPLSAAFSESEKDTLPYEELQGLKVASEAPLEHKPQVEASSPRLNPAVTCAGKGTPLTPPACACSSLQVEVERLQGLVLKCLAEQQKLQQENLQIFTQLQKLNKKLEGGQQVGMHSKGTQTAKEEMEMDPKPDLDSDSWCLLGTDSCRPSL
Chain of UniProt Q9Y2U5 (whole entry, looked up): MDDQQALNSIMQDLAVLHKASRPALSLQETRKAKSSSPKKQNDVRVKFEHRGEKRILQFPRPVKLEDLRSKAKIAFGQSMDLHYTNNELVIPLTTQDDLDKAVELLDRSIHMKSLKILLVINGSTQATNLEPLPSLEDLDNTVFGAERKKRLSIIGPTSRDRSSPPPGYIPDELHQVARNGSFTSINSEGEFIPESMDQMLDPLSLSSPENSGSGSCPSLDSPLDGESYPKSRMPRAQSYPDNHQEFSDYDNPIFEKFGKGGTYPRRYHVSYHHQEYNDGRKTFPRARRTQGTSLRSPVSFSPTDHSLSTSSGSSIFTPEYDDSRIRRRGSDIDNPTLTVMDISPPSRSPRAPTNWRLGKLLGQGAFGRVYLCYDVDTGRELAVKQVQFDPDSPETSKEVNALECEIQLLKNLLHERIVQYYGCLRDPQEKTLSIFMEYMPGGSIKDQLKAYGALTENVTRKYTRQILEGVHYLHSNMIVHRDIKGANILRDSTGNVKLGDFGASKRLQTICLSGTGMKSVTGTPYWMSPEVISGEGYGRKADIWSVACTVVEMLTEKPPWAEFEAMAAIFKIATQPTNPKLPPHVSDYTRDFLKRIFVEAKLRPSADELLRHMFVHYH
Chain of UniProt P53778 (whole entry, looked up): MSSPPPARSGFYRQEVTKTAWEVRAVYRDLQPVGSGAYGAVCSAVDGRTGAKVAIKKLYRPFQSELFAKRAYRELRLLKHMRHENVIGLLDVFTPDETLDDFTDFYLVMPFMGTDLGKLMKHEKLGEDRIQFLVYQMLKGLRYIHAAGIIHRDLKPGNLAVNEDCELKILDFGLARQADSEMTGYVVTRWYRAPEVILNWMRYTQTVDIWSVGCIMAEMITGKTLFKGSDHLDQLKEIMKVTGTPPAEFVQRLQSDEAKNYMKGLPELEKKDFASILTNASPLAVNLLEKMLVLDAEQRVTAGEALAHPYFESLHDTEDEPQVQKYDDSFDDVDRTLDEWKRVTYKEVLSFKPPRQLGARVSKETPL
Chain of UniProt P15735 (whole entry, looked up): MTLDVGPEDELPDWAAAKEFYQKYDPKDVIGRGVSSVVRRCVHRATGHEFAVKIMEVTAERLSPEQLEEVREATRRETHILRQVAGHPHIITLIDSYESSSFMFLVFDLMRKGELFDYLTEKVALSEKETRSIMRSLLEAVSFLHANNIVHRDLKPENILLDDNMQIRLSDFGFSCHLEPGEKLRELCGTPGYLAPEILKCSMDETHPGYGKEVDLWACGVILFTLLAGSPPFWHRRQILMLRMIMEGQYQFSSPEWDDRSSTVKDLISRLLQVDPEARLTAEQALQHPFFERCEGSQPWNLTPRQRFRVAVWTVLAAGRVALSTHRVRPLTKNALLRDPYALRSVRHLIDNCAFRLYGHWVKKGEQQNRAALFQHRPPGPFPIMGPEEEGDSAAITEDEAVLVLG
Chain of UniProt O75582 (whole entry, looked up): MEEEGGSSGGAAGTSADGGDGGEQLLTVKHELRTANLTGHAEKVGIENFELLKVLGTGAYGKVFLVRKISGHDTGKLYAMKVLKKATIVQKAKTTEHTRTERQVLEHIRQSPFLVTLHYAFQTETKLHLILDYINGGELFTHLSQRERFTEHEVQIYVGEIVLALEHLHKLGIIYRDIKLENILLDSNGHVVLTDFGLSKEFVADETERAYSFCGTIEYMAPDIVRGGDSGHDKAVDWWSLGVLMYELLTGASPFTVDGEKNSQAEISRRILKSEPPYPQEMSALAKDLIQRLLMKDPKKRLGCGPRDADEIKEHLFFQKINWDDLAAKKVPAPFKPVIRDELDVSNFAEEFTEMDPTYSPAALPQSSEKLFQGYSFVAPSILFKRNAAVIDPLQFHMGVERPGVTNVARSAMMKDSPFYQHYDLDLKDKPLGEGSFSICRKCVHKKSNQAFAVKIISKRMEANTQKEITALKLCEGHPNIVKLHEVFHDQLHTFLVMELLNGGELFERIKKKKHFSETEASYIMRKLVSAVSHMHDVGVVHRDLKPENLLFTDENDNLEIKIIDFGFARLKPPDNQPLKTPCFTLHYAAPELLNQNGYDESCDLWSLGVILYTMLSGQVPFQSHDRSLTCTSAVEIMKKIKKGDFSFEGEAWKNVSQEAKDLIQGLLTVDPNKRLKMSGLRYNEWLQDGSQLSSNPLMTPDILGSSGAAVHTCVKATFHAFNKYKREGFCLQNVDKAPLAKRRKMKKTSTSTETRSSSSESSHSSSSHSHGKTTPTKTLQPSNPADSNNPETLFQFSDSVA
Chain of UniProt P23443 (whole entry, looked up): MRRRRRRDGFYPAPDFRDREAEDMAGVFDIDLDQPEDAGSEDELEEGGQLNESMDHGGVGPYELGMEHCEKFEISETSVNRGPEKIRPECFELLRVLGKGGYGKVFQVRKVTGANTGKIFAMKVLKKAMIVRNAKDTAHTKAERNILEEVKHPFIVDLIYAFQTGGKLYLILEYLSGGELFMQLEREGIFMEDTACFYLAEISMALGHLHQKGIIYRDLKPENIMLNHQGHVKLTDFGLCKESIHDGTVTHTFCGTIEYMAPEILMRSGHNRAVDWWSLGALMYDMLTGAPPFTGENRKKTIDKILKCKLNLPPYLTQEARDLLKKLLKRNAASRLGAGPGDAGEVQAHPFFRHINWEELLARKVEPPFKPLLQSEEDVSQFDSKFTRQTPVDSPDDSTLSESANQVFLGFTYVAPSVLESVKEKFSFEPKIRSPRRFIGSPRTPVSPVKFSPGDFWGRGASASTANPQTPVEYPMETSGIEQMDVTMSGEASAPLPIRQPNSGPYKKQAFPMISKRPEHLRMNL

Block 1
Structure (SMILES): CC(C)(C(=O)O)[C@H](NC(=O)Cc1cccc(I)c1)c1ccc2oc(=O)[nH]c2c1
Technique: Incucyte 3D growth
Tested at: 30 µM
Direction: higher = more growth
cell line | conditions | spheroid area
A375 | 390.52 h | 1.78e+08 a.u. and 1.56e+08 a.u. and 1.64e+08 a.u. and 1.68e+08 a.u. and 1.89e+08 a.u. and 1.74e+08 a.u.
MEL-JUSO | 222.52 h | 1.66e+07 a.u. and 2.54e+07 a.u. and 1.58e+07 a.u. and 2.28e+07 a.u. and 1.55e+07 a.u. and 1.72e+07 a.u.
NCI-H358 | 90 h | 4.33e+06 a.u. and 3.38e+06 a.u. and 4.42e+06 a.u. and 4.89e+06 a.u. and 3.94e+06 a.u. and 3.69e+06 a.u.
NCI-H358 | 288 h | 1.28e+07 a.u. and 1.23e+07 a.u.
PC-9 | 54 h | 4.58e+08 a.u. and 4.31e+08 a.u. and 4.39e+08 a.u. and 4.37e+08 a.u. and 4.43e+08 a.u. and 4.32e+08 a.u.
A375 | 30 h | 8.78e+06 a.u. and 1.44e+07 a.u. and 1.51e+07 a.u. and 1.45e+07 a.u. and 9.04e+06 a.u. and 1.64e+07 a.u.
IPC-298 | 54 h | 2.99e+07 a.u. and 2.22e+07 a.u. and 3.06e+07 a.u. and 2.7e+07 a.u. and 2.58e+07 a.u. and 2.37e+07 a.u.
A375 | 204 h | 1.07e+08 a.u. and 1.21e+08 a.u. and 1.19e+08 a.u. and 1.25e+08 a.u. and 1.41e+08 a.u. and 1.22e+08 a.u.
IPC-298 | 180 h | 2.79e+07 a.u. and 2.65e+07 a.u. and 2.14e+07 a.u. and 3.05e+07 a.u. and 3.53e+07 a.u. and 2.8e+07 a.u.
PC-9 | 144 h | 1.14e+09 a.u. and 1.15e+09 a.u. and 1.12e+09 a.u. and 1.09e+09 a.u. and 1.06e+09 a.u.
A375 | 288.52 h | 2.03e+08 a.u. and 1.75e+08 a.u. and 1.77e+08 a.u. and 1.84e+08 a.u. and 2.01e+08 a.u.
A375 | 96 h | 5.3e+07 a.u. and 5.67e+07 a.u. and 7.01e+07 a.u. and 6.91e+07 a.u. and 5.35e+07 a.u. and 6.17e+07 a.u.

Block 2
Target: Diamine acetyltransferase 1 (Homo sapiens, UniProt P21673)
Action: inhibitor
Tested at: 10 µM
Relative to: control
Construct (P21673 1-171): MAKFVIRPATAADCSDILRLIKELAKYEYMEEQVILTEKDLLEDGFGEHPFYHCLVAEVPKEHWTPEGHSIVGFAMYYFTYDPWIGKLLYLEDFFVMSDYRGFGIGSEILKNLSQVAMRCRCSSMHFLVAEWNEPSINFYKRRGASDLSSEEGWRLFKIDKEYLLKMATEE
SMILES | remaining activity
COc1cc(C(C)=O)ccc1O[C@@H]1O[C@H](CO)[C@@H](O)[C@H](O)[C@H]1O | 82.3%
CCCCCCCCCCCCCCCCCO | 103%
O=C1C[C@@H](c2ccc(O)cc2)Oc2cc(O)cc(O)c21 | 89.6%
C[n+]1cccc(C(=O)[O-])c1 | 76.1%
O=C(O)/C=C/c1ccc(O)c(O)c1 | 94.6%
C=C1CC[C@@H]2[C@H]([C@@H]3[C@H](C)CC[C@@H]13)C2(C)C | 91.4%
C[C@@H]1OC(O)[C@@H](O)[C@H](O)[C@@H]1O (single isomer, unassigned; (-)) | 112%
COc1cc2c(c(O)c1OC)C(=O)c1c(cc(C)c(O)c1OC)C2=O | 121%
NCCS(=O)(=O)O | 89.6%
O=c1cc(-c2ccc(O)c(O)c2)oc2c([C@@H]3O[C@H](CO)[C@@H](O)[C@H](O)[C@H]3O)c(O)cc(O)c12 | 91.9%
COc1c(OC)c2occc2c2oc(=O)ccc12 | 88.7%
OC[C@H]1O[C@H](OC[C@H]2OC(O)[C@H](O)[C@@H](O)[C@@H]2O)[C@H](O)[C@@H](O)[C@@H]1O (stereo partly drawn) | 104%

Block 3
Target: Protein kinase C theta type (PRKCQ, Homo sapiens, UniProt Q04759)
Chain of UniProt Q04759 (whole entry, looked up): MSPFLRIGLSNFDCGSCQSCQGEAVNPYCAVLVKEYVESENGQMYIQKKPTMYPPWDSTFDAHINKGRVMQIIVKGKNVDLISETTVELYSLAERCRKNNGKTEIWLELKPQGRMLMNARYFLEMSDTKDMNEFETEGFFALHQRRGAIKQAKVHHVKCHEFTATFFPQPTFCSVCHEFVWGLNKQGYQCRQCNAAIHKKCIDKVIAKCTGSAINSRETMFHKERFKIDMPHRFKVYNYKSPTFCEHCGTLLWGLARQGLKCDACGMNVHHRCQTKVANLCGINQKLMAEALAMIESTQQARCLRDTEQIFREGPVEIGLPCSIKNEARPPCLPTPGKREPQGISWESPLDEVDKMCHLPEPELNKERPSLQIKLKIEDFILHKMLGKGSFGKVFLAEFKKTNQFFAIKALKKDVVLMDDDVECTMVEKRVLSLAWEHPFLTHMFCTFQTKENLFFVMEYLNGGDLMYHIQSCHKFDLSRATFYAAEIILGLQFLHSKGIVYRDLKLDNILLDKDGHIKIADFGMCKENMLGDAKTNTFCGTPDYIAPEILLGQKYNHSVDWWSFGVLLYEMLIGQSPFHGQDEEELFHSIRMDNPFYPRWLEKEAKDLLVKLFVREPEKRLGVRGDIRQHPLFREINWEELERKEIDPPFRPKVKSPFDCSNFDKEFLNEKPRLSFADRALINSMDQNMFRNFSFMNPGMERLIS
Read-out: enzyme activity
Action: inhibitor
Tested at: 0.5 µM
Relative to: control
Structure (SMILES) | remaining activity [%]
COc1cc2c(cc1OC)-c1[nH]nc(Nc3cccc(F)c3)c1C2 | 108
O=c1cc(-c2cccc3c2Sc2ccccc2S3)oc(N2CCOCC2)c1 | 112
N#C/C(=C\c1ccc(O)c(O)c1)C(=O)NCc1ccccc1 | 103
Cc1cn(-c2cc(NC(=O)c3ccc(C)c(Nc4nccc(-c5cccnc5)n4)c3)cc(C(F)(F)F)c2)cn1 | 75.4
Cc1nc2cc3nc(-c4cccs4)cnc3cc2n1C | 100
c1ccc(-c2[nH]ncc2-c2ccnc3ccccc23)nc1 | 115
Cn1nc2c3c(cccc31)C(=O)c1ccccc1-2 | 106
CCN(CC)C(=O)c1ccc(Nc2nc(OCC3CCCCC3)c3[nH]cnc3n2)cc1 | 97.9
CCN(CC)CCNC(=O)c1c(C)[nH]c(/C=C2\C(=O)Nc3ccc(F)cc32)c1C | 63.5
CCN(CC)CCNC(=O)c1c(C)[nH]c(/C=C2\C(=O)Nc3ccc(Cl)cc32)c1C | 105
O=C1c2ccccc2-c2n[nH]c3cccc1c23 | 87.1
O=C(Nc1cccc(Nc2nccc(Nc3cccc(C(F)(F)F)c3)n2)c1)C1CC1 | 107
Cc1cc2ncc(-c3ccccc3)nc2cc1C | 97
CN([C@@H](Cc1ccc(OS(=O)(=O)c2cccc3cnccc23)cc1)C(=O)N1CCN(c2ccccc2)CC1)S(=O)(=O)c1cccc2cnccc12 | 108
CN(C)C[C@H]1CCn2c(c(C3=C(c4cn(C)c5ccccc45)C(=O)NC3=O)c3ccccc32)C1 | 12.7
CCOc1nc(NC(=O)Cc2cc(OC)ccc2OC)cc(N)c1C#N | 111
Nc1cccc(-c2cc3c(Oc4cccc(O)c4)ncnc3[nH]2)c1 | 64.5
COc1cc2ncnc(Nc3cccc(Cl)c3)c2cc1OC | 105
O=C1C(Cl)=C(N2C(=O)CCC2=O)C(=O)c2ccccc21 | 114
O=C(NC(NC(=S)Nc1ccc(F)c([N+](=O)[O-])c1)C(Cl)(Cl)Cl)C(c1ccccc1)c1ccccc1 (stereo not drawn) | 107
Ic1cccc(CSc2nnc(-c3ccncc3)o2)c1 | 120
COc1cc2ncnc(Nc3ccc(O)c(Br)c3)c2cc1OC | 92.8
c1ccc(-c2cnc(Nc3ccc(OCCN4CCCC4)cc3)s2)cc1 | 91.2

Block 4
SMILES: O=C1CCc2cc(Nc3cc(OC4CCOCC4)c([N+](=O)[O-])cc3Cl)ccc2N1
Read-out: cell-free assay
Technique: competition with immobilised ligand
Tested at: 1 µM
target | remaining binding [%]
Phosphorylase b kinase gamma catalytic chain, liver/testis isoform (PHKG2, Homo sapiens, UniProt P15735) | 100
Ribosomal protein S6 kinase alpha-5, N-terminal kinase domain (RPS6KA5, Homo sapiens, UniProt O75582) | 86
Mitogen-activated protein kinase 7 (MAPK7, Homo sapiens, UniProt Q13164) | 100
Tyrosine-protein kinase Lck (LCK, Homo sapiens, UniProt P06239) | 100
Mitogen-activated protein kinase kinase kinase 2 (MAP3K2, Homo sapiens, UniProt Q9Y2U5) | 100
Myosin-IIIa (MYO3A, Homo sapiens, UniProt Q8NEV4) | 99
Cyclin-dependent kinase 8 (CDK8, Homo sapiens, UniProt P49336) | 100
Interleukin-1 receptor-associated kinase 1 (IRAK1, Homo sapiens, UniProt P51617) | 98
Testis-specific serine/threonine-protein kinase 1 (TSSK1B, Homo sapiens, UniProt Q9BXA7) | 85
MAP/microtubule affinity-regulating kinase 3 (MARK3, Homo sapiens, UniProt P27448) | 100
Serine/threonine-protein kinase RIO2 (RIOK2, Homo sapiens, UniProt Q9BVS4) | 89
Ribosomal protein S6 kinase beta-1 (RPS6KB1, Homo sapiens, UniProt P23443) | 100
Mitogen-activated protein kinase 12 (MAPK12, Homo sapiens, UniProt P53778) | 100
Phosphatidylinositol 4,5-bisphosphate 3-kinase catalytic subunit gamma isoform (PIK3CG, Homo sapiens, UniProt P48736) | 75
Mitogen-activated protein kinase kinase kinase 13 (MAP3K13, Homo sapiens, UniProt O43283) | 91
Serine/threonine-protein kinase D2 (PRKD2, Homo sapiens, UniProt Q9BZL6) | 85
Serine/threonine-protein kinase PAK 3 (PAK3, Homo sapiens, UniProt O75914) | 100
Dual specificity mitogen-activated protein kinase kinase 3 (MAP2K3, Homo sapiens, UniProt P46734) | 86
Serine/threonine-protein kinase Nek9 (NEK9, Homo sapiens, UniProt Q8TD19) | 80
Tyrosine-protein kinase ABL1, phosphorylated (ABL1, Homo sapiens, UniProt P00519, F317L) | 88
Mitogen-activated protein kinase kinase kinase 9 (MAP3K9, Homo sapiens, UniProt P80192) | 90
Tyrosine-protein kinase ABL1, non-phosphorylated (ABL1, Homo sapiens, UniProt P00519, Q252H) | 79
Tyrosine-protein kinase ITK/TSK (ITK, Homo sapiens, UniProt Q08881) | 95
Tyrosine-protein kinase receptor UFO (AXL, Homo sapiens, UniProt P30530) | 96
Rhodopsin kinase GRK7 (GRK7, Homo sapiens, UniProt Q8WTQ7) | 100
